Results collected from several papers.
Numbered parts are unrelated; each lists some results of a single study. Substitutions count along the parent as printed.

Set 1 — method: protein-binding microarray; form: double-stranded DNA, one strand shown; medium: in vitro; tested at: 2200 nM top; notes: 60-bp whole probe; added: salmon DNA 0.4 mg/ml; reference: random background probes; direction: higher = stronger binding; endpoint: fitted relative affinity; constant ends, left off below: GCCTAGCAC … GTCTTGATTCGCTTGACGCTGCTG
Target: Interferon regulatory factor 7, full length, phosphomimetic (IRF7, Homo sapiens, UniProt Q92985, residues 1-503, S471D/S472D/S475D/S476D/S477D/S483D/S484D/S487D)
Sequence of UniProt Q92985 (whole entry, unmodified, looked up): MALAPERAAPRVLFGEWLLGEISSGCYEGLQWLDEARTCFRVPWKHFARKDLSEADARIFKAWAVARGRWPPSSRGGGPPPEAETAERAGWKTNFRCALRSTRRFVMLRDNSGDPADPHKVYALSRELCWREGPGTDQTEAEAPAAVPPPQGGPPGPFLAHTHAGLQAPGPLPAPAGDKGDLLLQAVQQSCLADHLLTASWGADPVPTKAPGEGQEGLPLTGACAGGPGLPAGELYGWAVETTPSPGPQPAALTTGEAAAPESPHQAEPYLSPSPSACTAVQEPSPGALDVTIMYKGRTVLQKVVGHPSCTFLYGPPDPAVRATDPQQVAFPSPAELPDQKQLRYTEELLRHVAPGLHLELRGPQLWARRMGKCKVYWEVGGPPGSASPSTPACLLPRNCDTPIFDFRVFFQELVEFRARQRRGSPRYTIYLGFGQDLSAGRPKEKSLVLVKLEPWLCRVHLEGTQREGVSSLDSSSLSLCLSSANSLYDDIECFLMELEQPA
TCAACTCTCTGCTTGTAACTGTGCTAG: 1.19 z-score
TGCTTTCTTTAACTCATTTTGTGCTAG: 1.82 z-score
TTAGGACTGGACTATCGGCTAGTGCTA: -0.659 z-score
TTAGGTTTCCTACTGCTCTAGTGCTAG: 1.34 z-score
TTAGATTTCAGACTGAATTAGTGCTAG: -0.18 z-score
TTAGATCTCAGTATCCATTAGTGCTAG: 0.534 z-score
GGCGGTATCCTACTGCTGACGTGCTAG: -0.34 z-score
GACGGTATCCTTCTCCAGACGTGCTAG: 0.899 z-score
CACCATCTAGTTCTGCTTTGGTGCTAG: 2.07 z-score
TTAGAACTGGGGTTTCGATTGGTGCTA: 3.79 z-score

Set 2 — method: DHFR PCA, deep sequencing; medium: yeast; added: (+)-ABA 200 µM; reference: wild-type fitted maximum; direction: higher = stronger binding; endpoint: relative binding score
Target: ABI1, truncated, D143A, DHFR fusion (Arabidopsis thaliana)
Notes: methotrexate growth selection, single substitutions
Starting sequence: PYL1, truncated, DHFR fusion (Arabidopsis thaliana); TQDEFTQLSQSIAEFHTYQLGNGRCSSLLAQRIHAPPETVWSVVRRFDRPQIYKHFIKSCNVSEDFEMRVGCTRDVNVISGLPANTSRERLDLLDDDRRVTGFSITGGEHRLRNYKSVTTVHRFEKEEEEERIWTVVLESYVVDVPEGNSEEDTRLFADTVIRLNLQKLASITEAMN; partner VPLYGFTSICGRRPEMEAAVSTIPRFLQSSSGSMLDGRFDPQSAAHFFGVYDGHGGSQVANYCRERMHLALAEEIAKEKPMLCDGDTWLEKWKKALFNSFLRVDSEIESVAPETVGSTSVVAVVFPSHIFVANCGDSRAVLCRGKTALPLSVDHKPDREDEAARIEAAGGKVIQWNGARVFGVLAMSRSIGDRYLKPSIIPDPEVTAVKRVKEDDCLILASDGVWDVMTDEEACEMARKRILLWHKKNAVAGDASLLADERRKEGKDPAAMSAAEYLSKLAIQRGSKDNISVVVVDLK
K168W: 96.1%
Q2P: 101%
D96V: 45.2%
F56G: 10.4%
F15K: 33.9%
V40H: 26.9%
N165G: 18.7%

Set 3 — method: protein binding microarray; form: double-stranded DNA, one strand shown; medium: in vitro; tested at: not given; reference: not given; direction: higher = stronger binding; endpoint: E-score
Target: Histone acetyltransferase KAT6A, winged helix 1, GST fusion (KAT6A, Homo sapiens, UniProt Q92794, residues 1-85)
Notes: 8-mer, flanks averaged, mean of 2 arrays, mostly near background
Target sequence (chain): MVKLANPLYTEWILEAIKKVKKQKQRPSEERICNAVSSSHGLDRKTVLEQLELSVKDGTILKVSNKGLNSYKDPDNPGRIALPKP
GATACGAC: -0.0293
CTAGCAAG: -0.223
CTAATTTC: -0.0173
ACGTTGTG: -0.0393
TCCATTAA: -0.0276
GCTCCACC: -0.0555
AGGGTAGG: -0.0303
AGAGGGAG: -0.237
CATCAATA: -0.199
ATCTCTGC: -0.128
GAGACACC: -0.0944
AAAAATGT: -0.0265
CCAGGGTC: -0.197

Other studies, line by line
PhoQ, residues 284 288 289 292 302 303 SQSLSM  fold induction (PhoP, residues 12 14 15 18 19 MHTVL (Escherichia coli, UniProt P23836); Sort-seq, refers to: YFP reporter; E. coli; PhoQ-PhoP variant library, added: 10 µM Mg2+; reference: high Mg2+ state, higher = stronger signaling): 11.6

For quick reference, copied from above (other studies, line by line):
PhoQ, residues 284 288 289 292 302 303 SQSLSM  fold induction (PhoP, residues 12 14 15 18 19 MHTVL (Escherichia coli, UniProt P23836); Sort-seq, refers to: YFP reporter; E. coli; PhoQ-PhoP variant library, added: 10 µM Mg2+; reference: high Mg2+ state, higher = stronger signaling): 11.6
